Published values pooled from the literature.
Several values in a cell are separate wells, animals, samples, runs or records. ± gives the spread as reported. In brackets after ≈: the same amount, converted by molar mass.
UniProt Q9Y4K4, sequence (whole entry, looked up): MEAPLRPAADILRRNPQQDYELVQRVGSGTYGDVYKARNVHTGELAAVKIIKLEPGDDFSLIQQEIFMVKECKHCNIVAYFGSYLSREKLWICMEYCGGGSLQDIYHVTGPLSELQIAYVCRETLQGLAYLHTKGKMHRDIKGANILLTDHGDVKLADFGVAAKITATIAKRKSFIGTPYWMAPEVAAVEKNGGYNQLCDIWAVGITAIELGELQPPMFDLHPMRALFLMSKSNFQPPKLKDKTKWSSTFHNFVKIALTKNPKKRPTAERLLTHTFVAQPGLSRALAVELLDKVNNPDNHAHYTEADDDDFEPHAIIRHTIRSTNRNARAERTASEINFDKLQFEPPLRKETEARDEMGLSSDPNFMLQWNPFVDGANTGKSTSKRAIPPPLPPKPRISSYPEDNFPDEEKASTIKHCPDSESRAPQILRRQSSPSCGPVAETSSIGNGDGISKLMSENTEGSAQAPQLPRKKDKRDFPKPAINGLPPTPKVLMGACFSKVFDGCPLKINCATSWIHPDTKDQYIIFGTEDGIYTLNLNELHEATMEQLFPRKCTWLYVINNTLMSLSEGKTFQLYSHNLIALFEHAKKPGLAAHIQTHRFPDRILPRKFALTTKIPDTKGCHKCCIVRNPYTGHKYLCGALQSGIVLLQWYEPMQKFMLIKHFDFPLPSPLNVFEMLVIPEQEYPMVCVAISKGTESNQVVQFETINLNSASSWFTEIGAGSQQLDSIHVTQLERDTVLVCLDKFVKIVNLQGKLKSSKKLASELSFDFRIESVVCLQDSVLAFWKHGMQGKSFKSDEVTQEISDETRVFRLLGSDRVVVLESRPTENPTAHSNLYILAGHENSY

`C=CC(=O)Nc1cccc(Cn2ncc3cnc(Nc4cnn(CCOC)c4)nc32)c1` — result for “percent of control”: 100% (PYK2 human; binding, KINOMEscan; 100 nM; lower = stronger binding).
With `CCCC[C@H](NC(=O)CCCCCCCNC(=O)CN1CCN(CC(=O)O)CCN(CC(=O)O)CC1)C(=O)N[C@H]1CC(=O)NCCCC[C@@H](C(N)=O)NC(=O)[C@H](Cc2c[nH]c3ccccc23)NC(=O)[C@H](CCCNC(=N)N)NC(=O)[C@@H](Cc2ccccc2)NC(=O)[C@H](Cc2c[nH]cn2)NC1=O` [technetium-99m labelled] the tissue uptake was 0.06 ± 0.07 %ID/g (C57 mouse, lung; intravenous, 0.037 MBq, 24 h).
`O=C(Nc1cnccc1-c1ccc([18F])cc1)c1ccnc(NC(=O)C2CC2)c1` gave an SUV of 0.09 (mice, transgenic, GSK-3β, early-stage, spleen; intravenous, dose not given, 120 min).
`CC1=N[C@H](C)Cc2c(-c3ccc(Cl)cc3)ccc(O)c21` gave an IC50 of 22000 nM (Plasmodium falciparum; parasite growth, SYBR Green; NF54; blood stage).
With `COc1ccc(Nc2n[nH]c3nc(-c4ccccc4)nc(N)c23)cc1` the IC50 was 5110 nM (coxsackievirus B3; viral cytopathic effect; HeLa).
`CC(C)C[C@H](NC(=O)[C@@H](CCCCNC(=O)[C@@H](Cc1ccccc1)NC(=O)CCCCCNC(=O)CN1CCN(CC(=O)O)CCN(CC(=O)O)CCN(CC(=O)O)CC1)NC(=O)[C@H](Cc1ccc(O)cc1)NC(=O)[C@H](CO)NC(=O)[C@H](Cc1c[nH]c2ccccc12)NC(=O)[C@H](Cc1c[nH]cn1)NC(=O)[C@@H]1CCC(=O)N1)C(=O)N[C@@H](CCCNC(=N)N)C(=O)N1CCC[C@H]1C(=O)NCC(N)=O` [indium-111 labelled] has a tissue uptake of 1.35 ± 0.37 %ID/g (female athymic nude mice, blood; intravenous, 0.037 MBq, 0.5 h).
`Nc1nc(-c2ccccc2)nc2[nH]nc(Nc3cccc(Cl)c3)c12` gave an IC50 of 420 nM (rhinovirus B42; viral cytopathic effect; HeLa).
With `O=c1[nH]cc(C(c2ccc(Cl)cc2Cl)c2c[nH]c(=O)[nH]c2=O)c(=O)[nH]1` the inhibition was 7% (Human immunodeficiency virus 1; viral replication, inhibitor, ELISA; 1 µg/mL).
The MBC of `COC1C=COC2(C)Oc3c(C)c(O)c4c(c3C2=O)C2=NC3(CCN(CC(C)C)CC3)NC2=C(NC(=O)C(C)=CC=CC(C)C(O)C(C)C(O)C(C)C(OC(=O)c2cccnc2)C1C)C4=O` (centres unmarked) is reported as 2 µM (≈ 1.82 µg/mL) (Mycobacteroides abscessus; ATCC 19977, caseum surrogate; 5 d, non-replicating).
`COc1cc(CCO)ccc1O` gave an inhibition of 30.6 ± 2.74% (Zika virus; viral replication, CCK-8; Vero C1008; 10 µM, 96 h).
For `CNCc1ccc2c(c1)C[C@H](CNC(=N)N)[C@H]2NC(=O)C(=O)Nc1ccc(Cl)c(F)c1`, the IC80 was 2210 nM (HIV-1; pseudovirus infection, Env pseudovirus neutralisation; TZM-bl, clade B transmitted/founder).
For `CCCCCCCCCC(=O)N[C@@H](Cc1c[nH]c2ccccc12)C(=O)N[C@H](CC(N)=O)C(=O)N[C@@H](CC(=O)O)C(=O)N[C@@H]1C(=O)NCC(=O)N[C@@H](CCCNC(=O)OC2/C=C/CCCCC2)C(=O)N[C@@H](CC(=O)O)C(=O)N[C@H](C)C(=O)N[C@@H](CC(=O)O)C(=O)NCC(=O)N[C@H](CO)C(=O)N[C@@H]([C@H](C)CC(=O)O)C(=O)N[C@@H](CC(=O)c2ccccc2N)C(=O)O[C@@H]1C` (some centres unmarked), “peak heat flow time” read 0 h (Staphylococcus aureus; planktonic bacterial growth, isothermal microcalorimetry; MSSA; 3.0 µg/mL, 24 h, 37 °C, with: TAG hydrogel).
`Nc1ncc(-c2cc(-c3cnn(CC(F)(F)F)c3)ncc2F)nc1C(=O)NC1CNCC(F)C1` (centres unmarked) has a remaining binding of 70% (SgK110; KINOMEscan competition binding; 1 µM; reference: DMSO control).
`COCCN(C)CC(=O)NC(Cc1ccc(-c2ccccc2)cc1)B(O)O` (centres unmarked) — result for “reduction of liver-stage parasite biomass”: 98% (Plasmodium berghei; HepG2; concentration not given).
For `FC(F)(F)c1cccc(CNc2nc(NC3CCN(Cc4ccccc4)CC3)c3nc[nH]c3n2)c1`, “log2 fold change” read -0.217 (Cryptococcus neoformans; RNA-seq, item: CNAG_05329; wild type; 48 µg/mL, 3 h; reference: untreated wild type).
For `Nc1nc(-c2ccccc2)nc2[nH]nc(Nc3ccc(OC(F)(F)F)cc3)c12`, the IC50 was 50 nM (rhinovirus B42; viral cytopathic effect; HeLa).
With `Cc1ncsc1-c1ccc(CNC(=O)[C@@H]2C[C@H](O)CN2C(=O)[C@@H](NC(=O)CN2CCN(C3CN(CCNC(=O)C[C@@H]4N=C(c5ccc(Cl)cc5)c5c(sc(C)c5C)-n5c(C)nnc54)C3)CC2)C(C)(C)C)cc1` the protein level was 166% and 127% and 151% and 162% (Spodoptera frugiperda; degrader, targeted LC-MS, item: BRD3; Sf9; 0.001 µM).
The IC50 of `Cc1ccc(-c2nc(N)c3c(Nc4ccc(F)cc4)n[nH]c3n2)cc1F` is reported as 6530 nM (coxsackievirus B3; viral cytopathic effect; HeLa).
`CC[C@H](C)[C@H](NC(=O)[C@H](Cc1ccc(O)cc1)NC(=O)[C@H](CCC(=O)O)NC(=O)CNC(=O)[C@H](CCC(=O)O)NC(=O)[C@H](CCCCN)NC(=O)[C@H](CCCCN)NC(=O)[C@H](CC(=O)O)NC(=O)[C@H](Cc1c[nH]cn1)NC(=O)[C@H](Cc1c[nH]cn1)NC(=O)[C@H](Cc1c[nH]cn1)NC(=O)[C@H](Cc1c[nH]cn1)NC(=O)[C@H](Cc1c[nH]cn1)NC(=O)[C@H](Cc1c[nH]cn1)NC(=O)[C@H](Cc1c[nH]cn1)NC(=O)[C@H](Cc1c[nH]cn1)NC(=O)[C@H](Cc1c[nH]cn1)NC(=O)[C@@H](N)Cc1c[nH]cn1)C(=O)N[C@@H](CCCCN)C(=O)N[C@@H](CC(C)C)C(=O)N[C@@H](CCCCN)C(=O)N[C@H](C(=O)N[C@H](C(=O)NCC(=O)N[C@@H](CCC(N)=O)C(=O)N[C@@H](CC(=O)O)C(=O)N[C@@H](CO)C(=O)N[C@@H](CO)C(=O)N[C@@H](CCC(=O)O)C(=O)N[C@H](C(=O)N[C@@H](Cc1c[nH]cn1)C(=O)N[C@@H](Cc1ccccc1)C(=O)N[C@@H](CCCCN)C(=O)N[C@H](C(=O)N[C@@H](CCCCN)C(=O)N[C@@H](CCSC)C(=O)N[C@H](C(=O)N[C@H](C(=O)N[C@@H](Cc1c[nH]cn1)C(=O)N[C@@H](CC(C)C)C(=O)N[C@@H](CCCCN)C(=O)N[C@@H](CCCCN)C(=O)N[C@@H](CC(C)C)C(=O)N[C@@H](CCCCN)C(=O)N[C@@H](CCC(=O)O)C(=O)N[C@@H](CO)C(=O)N[C@@H](Cc1ccc(O)cc1)C(=O)N[C@@H](CS)C(=O)N[C@@H](CCC(N)=O)C(=O)N[C@@H](CCCNC(=N)N)C(=O)N[C@@H](CCC(N)=O)C(=O)O)[C@@H](C)O)[C@@H](C)O)C(C)C)[C@@H](C)CC)[C@@H](C)CC)C(C)C` — result for “TH level mean difference”: -0.557 (Drosophila melanogaster; immunoblot; head; 120 µM, normalised to β-actin, unit not given; reference: untreated).
`COC1CN([C@H]2CC[C@H]([C@@]3(C)Oc4c(Cl)cc(C(=O)NCc5c(SC)cc(C)[nH]c5=O)c(C)c4O3)CC2)C1`: “log2 fold change” 0.425 (RNA-seq, item: RAB36 mouse homolog; mouse, HT-1376 xenograft, whole blood; dose not given; reference: vehicle).
`COc1cc(O)ccc1CCC(c1ccc(O)cc1)c1cc2c(c(C)c1O)OC(c1ccc(O)cc1)CC2` (mixture of isomers) has an amount of 7 ± 1 pg/mL blood (item: RvD5; human whole blood; 3 µM, with: Escherichia coli).
The IC50 of `Cc1nn(-c2cccc(N)c2)c(=O)c2cnc(Nc3ccc(N4CCNCC4)cc3)nc12` is reported as 299 nM (Mitogen-activated protein kinase kinase kinase kinase 5 (MAP4K5, Homo sapiens, UniProt Q9Y4K4); enzyme activity, inhibitor).
`C=C(NC(=O)c1csc(-c2nc3c(cc2O)-c2nc(cs2)C(=O)NC(C(C)O)C(=O)NC(=C(C)OC)c2nc(cs2)C(=O)NC2c4nc(cs4)C(=O)NC(COC(=O)c4c5c6c(cccc6n4O)COC(=O)C(OC4CC(C)(O)C(N(C)C)C(C)O4)C2OC5)c2nc-3cs2)n1)C(N)=O` (centres unmarked) gave an MIC50 of 7.8 ng/mL (≈ 5.43 nM) (Streptococcus pneumoniae; penicillin-resistant, 10 isolates; pH 5.5).
The IC50 of `Nc1nc(-c2ccccc2)nc2[nH]nc(Nc3cc(F)ccc3F)c12` is reported as 40 nM (rhinovirus B42; viral cytopathic effect; HeLa).
The inhibition zone of `CN(Cc1ccc(C2(C(F)(F)F)CCC2)cc1)Cc1cccc2ccccc12` is reported as 43.8 mm (Trichophyton rubrum; microbial growth, disc diffusion; ATCC28188; 0.128 µg/mL, 6 days).
For `CNS(=O)(=O)Nc1nccc(Cc2c(C)c3ccc(Oc4ncccc4F)cc3oc2=O)c1F`, the IC50 was 92.4 nM (SUM185PE; cell viability; 7 days).
With `COc1cccc2c(-c3ccc(O)c4c3CCN=C4)ccc(OC(C)C)c12` the IC50 was 356 ± 21 nM (Plasmodium falciparum; asexual parasite proliferation, SYBR Green I fluorescence; clinical isolate SB_05, Mozambique).
Under “log2 fold change”, `Cc1ncsc1-c1ccc(C(C)NC(=O)C2CC(O)CN2C(=O)C(NC(=O)CCCCCCCCCCN2CCCC(Nc3ncc(Cl)c(Nc4ccccc4S(=O)(=O)C(C)C)n3)C2)C(C)(C)C)cc1` (centres unmarked) is recorded as -1.12 (22Rv1; RNA-seq, item: ZNF558 mRNA; concentration not given; reference: DMSO).
`Cc1cccc(-c2nc(N)c3c(Nc4ccc(F)cc4)n[nH]c3n2)c1` has an IC50 of 600 nM (coxsackievirus B3; viral cytopathic effect; HeLa).
The fold regulation of `CCN(CC)CC(=O)Nc1cccc(-n2cc(-c3ccc4ccc(-c5cn(-c6cccc(NC(=O)CN(CC)CC)c6)nn5)cc4c3)nn2)c1` is reported as -1.1 fold (RCC4; PCR angiogenesis array, item: TGFBR1; 5 x IC50, 4 h, normoxia; reference: untreated).
For `CC(C)(C)NCC(SS(=O)(=O)O)c1ccccc1` (centres unmarked), “liver weight decrease” read 14% (Schistosoma mansoni; perfusion day 52; infected Swiss Webster mice; 600 mg/kg single dose, 1248 h, dosed day 7 post-infection; reference: vehicle control).
For `CC(C)c1ccc(Nc2n[nH]c3nc(-c4ccccc4)nc(N)c23)cc1`, the IC50 was 30 nM (rhinovirus B42; viral cytopathic effect; HeLa).
For `CN1CCCNC(=O)c2cccc(c2)C(=O)NCCCN(C)CCCNc2cccc3c2C(=O)c2cccc(c2C3=O)NCCC1`, “log2 fold change” read 1.84 (SAS; RNA-Seq, item: FAM86C1 mRNA; 1 µM, 6 h; reference: untreated cells).
For `COc1cccc2c(-c3ccc4c(c3O)[C@@H](C)N[C@H](C)C4)c(CO)cc(OC)c12`, the IC50 was 15.6 nM (Plasmodium falciparum; parasite growth, SYBR Green; NF54; blood stage).
`Cc1ccc(C(c2c[nH]c(=O)[nH]c2=O)c2c[nH]c(=O)[nH]c2=O)cc1` has an inhibition of 21% (Human immunodeficiency virus 1; viral replication, inhibitor, ELISA; 1 µg/mL).
`CCc1ccc(-c2nc(N)c3c(Nc4ccc(F)cc4)n[nH]c3n2)cc1` gave an IC50 of 500 nM (rhinovirus B42; viral cytopathic effect; HeLa).
`N#Cc1cccc(C(c2c[nH]c(=O)[nH]c2=O)c2c[nH]c(=O)[nH]c2=O)c1` has an inhibition of 10% (Human immunodeficiency virus 1; viral replication, inhibitor, ELISA; 1 µg/mL).
The germination rate of `Cc1cccc2c1N(C(=O)n1ccnn1)CC2` is reported as 10% and 19.2% and 25.8% and 7.4% and 27.6% and 32.1% (Arabidopsis thaliana; kai2 mutant, seeds; 100 µM).
